# Published values collected from several papers.
# Each line is one published result; not all experiments were run side by side. ± marks the error that the study gave.
SMILES,tested on,assay,system,conditions,how to read,quantity,value
CNc1ccccc1C(=O)O[C@H]1C[C@H](n2cnc3c(N)ncnc32)O[C@@H]1COP(=O)(O)OP(=O)(O)O,chicken myosin Va G440A FlAsH,,,"25 °C, weak actomyosin.ADP state, added: actin, saturating Mg",baseline: wild type,ADP release rate constant,3 fold
CN(CCCNC(=O)c1cccc(C(=O)O)c1)CCCNC(=O)c1cc(NC(=O)c2cc(NC(=O)c3cc(NC(=O)c4nc(NC(=O)C[C@@H](N)CNC(=O)c5cc(NC(=O)c6cc(NC(=O)c7cc(NC(=O)c8nccn8C)cn7C)cn6C)cn5C)cn4C)cn3C)cn2C)cn1C,androgen response element DNA duplex,DNA binding,,"2 µM, pH 7.0",baseline: DNA alone,ΔTm,18.4 °C
[CH3][Ti+2][O]C(=O)c1ccc([S][Au][PH](c2ccccc2)(c2ccccc2)c2ccccc2)cc1.c1cc[cH-]c1.c1cc[cH-]c1,thioredoxin reductase human,"enzyme activity, inhibitor",CAKI-1,"5 µM, 5 h",,inhibition,68.2%
Cl.Cl.Cl.Cl.Cl.Cl.Cl.Cl.Cl.Cl.Cl.Cl.NC[C@@H]1O[C@H](O[C@H]2[C@@H](O)[C@H](O[C@@H]3[C@@H](O)[C@H](N)C[C@H](N)[C@H]3O[C@H]3O[C@H](CN)[C@@H](O)[C@H](O)[C@H]3N)O[C@@H]2Cn2cc(CCCc3cn(C[C@H]4O[C@@H](O[C@@H]5[C@@H](O)[C@H](N)C[C@H](N)[C@H]5O[C@H]5O[C@H](CN)[C@@H](O)[C@H](O)[C@H]5N)[C@H](O)[C@@H]4O[C@H]4O[C@@H](CN)[C@@H](O)[C@H](O)[C@H]4N)nn3)nn2)[C@H](N)[C@@H](O)[C@@H]1O,HIV-1 TAR RNA,UV thermal denaturation,,"1 molar equivalents to RNA, pH 6.8, TAR RNA 1 µM per strand","baseline: RNA alone, higher is more stabilization",ΔTm,9.3 °C
O=C1c2cc(Cl)ccc2N(Cc2ccccc2)C12CCCC2,butyrylcholinesterase,,,10 µM,,remaining activity,59.4 ± 5.45%
N[C@H](C(=O)N1CCCC1)C1CCN(c2nccc3c(-c4ncc(Cl)cc4Cl)cccc23)CC1,peptidylarginine deiminase (human),inhibitor,human neutrophils,"up to 10 µM, added: ionomycin 5 µM",,protein citrullination,inhibited
C[C@H](NC(=O)[C@@H]1CCCN1C(=O)[C@H](Cc1ccc(O)cc1)NC(=O)CNC(=O)[C@H](CO)NC(=O)[C@H](Cc1ccccc1)NC(=O)[C@@H](N)[C@@H](C)O)C(=O)N[C@@H](Cc1ccccc1)C(=O)O,µ opioid receptor,,"rat supraoptic nucleus neurons, Sprague Dawley rat","1 µM, held at -50 mV",,outward current,94 ± 13.1 pA
COC[C@@H](NC(C)=O)C(=O)NCc1ccc(OCc2cccc(Cl)c2)cc1,rat voltage-gated sodium channels,whole-cell patch clamp,rat embryonic cortical neurons,10 µM,,V1/2 of activation,-40.4 ± 6.8 mV
C[C@H](N)C(=O)N[C@@H](CO)C(=O)N[C@@H](C)C(=O)N[C@H]1CSC(=O)[C@H](Cc2ccccc2)NC(=O)[C@H](Cc2ccc(O)cc2)NC(=O)[C@H](C)NC(=O)[C@H](CO)NC1=O,AgrC-III,"inhibitor, GFP reporter","Staphylococcus epidermidis, agr group-III reporter",100 nM,,AgrC-III activity,inhibited
NC(=O)[C@H](CO)NC(=O)[C@@H]1CCCN1C(=O)[C@H](Cc1ccc(O)cc1)NC(=O)CNC(=O)[C@H](Cc1ccccc1)NC(=O)[C@@H](CCCCNC(=O)CBr)NC(=O)[C@@H](N)Cc1ccc(O)cc1,mu opioid receptor,radioligand binding,CHO cells,added: 1 nM [3H]DAMGO,,IC50,5.23 ± 2.31 nM
CC[C@@H]1CN2CCc3c([nH]c4cccc(OC)c34)[C@@H]2C[C@@H]1/C(=C\OC)C(=O)OC,rabbit anti-mitragynine polyclonal IgG,competitive indirect ELISA,,salt 0.33 M,,IC50,2.6 µg/mL
CN[C@](C)(C[18F])C(=O)O,A549 tumour model,,"host not given, muscle","2 h, tumour-bearing",,tracer uptake,1.4 %ID/g
CC(=O)NCCC[C@@H](NC(=O)[C@@H](N)Cc1ccc(O)cc1)C(=O)N[C@@H](Cc1ccccc1)C(=O)NCC(=O)N[C@@H](Cc1ccc(O)cc1)C(=O)N1CCC[C@H]1C(=O)N[C@@H](CO)C(N)=O,mu opioid receptor,radioligand binding,CHO cells,added: 1 nM [3H]DAMGO,,IC50,4.25 ± 0.35 nM
Cl.Cl.Cl.Cl.Cl.Cl.Cl.Cl.Cl.Cl.Cl.Cl.NC[C@@H]1O[C@H](O[C@H]2[C@@H](O)[C@H](O[C@@H]3[C@@H](O)[C@H](N)C[C@H](N)[C@H]3O[C@H]3O[C@H](CN)[C@@H](O)[C@H](O)[C@H]3N)O[C@@H]2Cn2cc(CCCCCCc3cn(C[C@H]4O[C@@H](O[C@@H]5[C@@H](O)[C@H](N)C[C@H](N)[C@H]5O[C@H]5O[C@H](CN)[C@@H](O)[C@H](O)[C@H]5N)[C@H](O)[C@@H]4O[C@H]4O[C@@H](CN)[C@@H](O)[C@H](O)[C@H]4N)nn3)nn2)[C@H](N)[C@@H](O)[C@@H]1O,HIV-1 TAR RNA,UV thermal denaturation,,"1 molar equivalents to RNA, pH 6.8, TAR RNA 1 µM per strand","baseline: RNA alone, higher is more stabilization",ΔTm,6.1 °C
Cc1ccc(C(C)C)cc1.F[P-](F)(F)(F)(F)F.[Cl][Ru-]1[NH2+]CC[NH2+]1,calf thymus DNA,thermal denaturation,,"0.5 equivalents per DNA, 1 h, pH 7.39, 25 °C, 50 mM NaClO4",,delta Tm,-0.6 °C
NC(=O)[C@H](CO)NC(=O)[C@@H]1CCCN1C(=O)[C@H](Cc1ccc(O)cc1)NC(=O)CNC(=O)[C@H](Cc1ccccc1)NC(=O)[C@@H](CCCCN=C=S)NC(=O)[C@@H](N)Cc1ccc(O)cc1,mu opioid receptor,radioligand binding,,,baseline: IC50 delta over IC50 mu,selectivity ratio,255
O=C1c2cc(F)ccc2N(Cc2ccccc2)C12CCCC2,butyrylcholinesterase,,,10 µM,,remaining activity,52.8 ± 3.25%
CC(=O)N[C@H]1CNC(=O)c2cc(cn2C)NC(=O)c2cc(cn2C)NC(=O)c2cc(cn2C)NC(=O)c2nc(cn2C)NC(=O)C[C@@H](N)CNC(=O)c2cc(cn2C)NC(=O)c2cc(cn2C)NC(=O)c2cc(cn2C)NC(=O)c2nc(cn2C)NC(=O)C1,androgen response element DNA duplex,DNA binding,,"2 µM, pH 7.0",,Tm,81.2 °C
CCCCCCCC/C=C\CCCCCCCC(=O)Oc1cccc(SSC[C@H](N)C(=O)N[C@@H](Cc2ccc(O)cc2)C(=O)NCC(=O)N[C@@H](C)C(=O)N[C@@H](CCCCN)C(N)=O)c1,rabbit mitochondrial calpain,enzyme activity,renal proximal tubule cells,"10 µM, 60 min",,inhibition,~40%
